Assay results from different studies.
Protocols differ between the studies behind these lines. Numbers after ± are the reported error.
Organism: HIV-1
Observed: viral replication

Structure (SMILES)	test	system	setting	measurement	value
C=C(C)[C@@H]1CC[C@]2(C(=O)OCOCCOC)CC[C@]3(C)[C@H](CC[C@@H]4[C@@]5(C)CC[C@H](OCOCCOC)C(C)(C)[C@@H]5CC[C@]43C)[C@@H]12	item: p24	MT4, NL4-3	96 h	IC50	> 10000 nM
Cc1cc(C)cc(S(=O)(=O)c2c(C(=O)NCCNS(=O)(=O)c3ccc(F)cc3)[nH]c3ccc(Cl)cc23)c1		MT-4, IIIB		EC50	28 ± 3.6 nM
C=C(C)[C@@H]1CC[C@]2(C(=O)N3CCC(CCCC(=O)N4CCOCC4)CC3)CC[C@]3(C)[C@H](CC[C@@H]4[C@@]5(C)CC[C@H](O)C(C)(C)[C@@H]5CC[C@]43C)[C@@H]12	item: p24	MT4, NL4-3	96 h	IC50	> 10000 nM
CN(C)CCCn1c(=O)c2cc(Br)c3c(=O)n(CCCN(C)C)c(=O)c4c5[nH]c6ccc([N+](=O)[O-])cc6[nH]c5c(c1=O)c2c34		TZM-bl, NL4-3	range active at 80% cytotoxicity or less	therapeutic window	15.6 to 250 nM
C=C(C)[C@@H]1CC[C@]2(C(=O)OCOCCOC)CC[C@]3(C)[C@H](CC[C@@H]4[C@@]5(C)CC[C@H](O)C(C)(C)[C@@H]5CC[C@]43C)[C@@H]12	item: p24	MT4, NL4-3	96 h	IC50	> 10000 nM
Cc1cc(C)cc(S(=O)(=O)c2c(C(=O)NCCCCCNS(=O)(=O)c3ccc(Cl)cc3)[nH]c3ccc(Cl)cc23)c1		MT-4, IIIB		EC50	10 ± 1.4 nM
C#CCOC(=O)[C@]12CC[C@@H](C(=C)C)[C@@H]1[C@H]1CC[C@@H]3[C@@]4(C)CC[C@H](O)C(C)(C)[C@@H]4CC[C@@]3(C)[C@]1(C)CC2	item: p24	MT4, NL4-3	96 h	IC50	> 10000 nM
Cc1cc(C)cc(S(=O)(=O)c2c(C(=O)NCCCNS(=O)(=O)c3cccs3)[nH]c3ccc(Cl)cc23)c1		MT-4, IIIB		EC50	57 ± 12 nM
CN(C)CCCn1c(=O)c2cc(Br)c3c(=O)n(CCCN(C)C)c(=O)c4c5[nH]c6ccc(C(=O)O)cc6[nH]c5c(c1=O)c2c34		TZM-bl, NL4-3	range active at 80% cytotoxicity or less	therapeutic window	800 to 5000 nM
Cc1cc(C)cc(C(=O)c2cc(Cl)ccc2OCCn2c3c(c(=O)[nH]c2=O)CCC3)c1		MAGI-CCR5, Ba-L, CCR5-tropic	co-addition with virus	EC90	30 nM
CN(C)CCCn1c(=O)c2ccc3c(=O)n(CCCN(C)C)c(=O)c4c5[nH]c6cc(C(=O)O)ccc6[nH]c5c(c1=O)c2c34		TZM-bl, NL4-3	range active at 80% cytotoxicity or less	therapeutic window	800 to 5000 nM
C=C(C)[C@@H]1CC[C@]2(C(=O)O)CC[C@]3(C)[C@H](CC[C@@H]4[C@@]5(C)CC[C@H](OCOC)C(C)(C)[C@@H]5CC[C@]43C)[C@@H]12	item: p24	MT4, NL4-3	96 h	IC50	> 10000 nM
Cc1cc(C)cc(S(=O)(=O)c2c(C(=O)NCCCCNS(=O)(=O)c3cccs3)[nH]c3ccc(Cl)cc23)c1		MT-4, IIIB		EC50	45 ± 17 nM
C=C(C)[C@@H]1CC[C@]2(C(=O)OCCCCCCCC)CC[C@]3(C)[C@H](CC[C@@H]4[C@@]5(C)CC[C@H](OC(=O)CC(C)(C)C(=O)O)C(C)(C)[C@@H]5CC[C@]43C)[C@@H]12	item: p24	MT4, NL4-3	96 h	IC50	> 10000 nM
Cc1cc(C)cc(S(=O)(=O)c2c(C(=O)NCCCCCNS(=O)(=O)c3cccs3)[nH]c3ccc(Cl)cc23)c1		MT-4, IIIB		EC50	67 ± 27 nM
O=c1cc(-c2ccc(O)c(O)c2)oc2cc(O)cc(O)c12		TZM-bl, BaL, CCR5-tropic	48 h	IC50	4380 nM
Cc1cc(C)cc(S(=O)(=O)c2c(C(=O)NCCNS(=O)(=O)c3cccnc3)[nH]c3ccc(Cl)cc23)c1		MT-4, IIIB		EC50	7.3 ± 1.6 nM
O=c1[nH]c(=O)n([C@H]2C[C@H](O)[C@@H](CO)O2)cc1I	item: reverse transcriptase activity	human PBM cells, LAI		EC90	> 100000 nM
CN(C)CCCn1c(=O)c2cc(Br)c3c(=O)n(CCCN(C)C)c(=O)c4c5[nH]c6ccccc6[nH]c5c(c1=O)c2c34		TZM-bl, NL4-3	range active at 80% cytotoxicity or less	therapeutic window	7.8 to 125 nM
O=c1ccn([C@H]2C=C[C@@H](CO)O2)c(=O)[nH]1	item: reverse transcriptase activity	human PBM cells, LAI		EC90	> 100000 nM
Cc1cc(C)cc(S(=O)(=O)c2c(C(=O)NCCCNS(=O)(=O)c3ccccc3)[nH]c3ccc(Cl)cc23)c1		MT-4, IIIB		EC50	29 ± 3.6 nM
C=C(C)[C@@H]1CC[C@]2(C(=O)OCCCCCC(=O)OCC)CC[C@]3(C)[C@H](CC[C@@H]4[C@@]5(C)CC[C@H](O)C(C)(C)[C@@H]5CC[C@]43C)[C@@H]12	item: p24	MT4, NL4-3	96 h	IC50	> 10000 nM
CN(C)CCCn1c(=O)c2ccc3c(=O)n(CCCN(C)C)c(=O)c4c5[nH]c6ccccc6[nH]c5c(c1=O)c2c34	LTR luciferase reporter	TZM-bl, BaL	48 h	IC50	< 40 nM
Cc1ccnc2c1NC(=O)c1cccnc1N2C1CC1		MT-4, IIIB		EC50	130 ± 41 nM
C=C(C)[C@@H]1CC[C@]2(C(=O)OCOC)CC[C@]3(C)[C@H](CC[C@@H]4[C@@]5(C)CC[C@H](OCOC)C(C)(C)[C@@H]5CC[C@]43C)[C@@H]12	item: p24	MT4, NL4-3	96 h	IC50	> 10000 nM

Repeated from above:
Structure (SMILES)	test	system	setting	measurement	value
C=C(C)[C@@H]1CC[C@]2(C(=O)OCCCCCC(=O)OCC)CC[C@]3(C)[C@H](CC[C@@H]4[C@@]5(C)CC[C@H](O)C(C)(C)[C@@H]5CC[C@]43C)[C@@H]12	item: p24	MT4, NL4-3	96 h	IC50	> 10000 nM
C=C(C)[C@@H]1CC[C@]2(C(=O)N3CCC(CCCC(=O)N4CCOCC4)CC3)CC[C@]3(C)[C@H](CC[C@@H]4[C@@]5(C)CC[C@H](O)C(C)(C)[C@@H]5CC[C@]43C)[C@@H]12	item: p24	MT4, NL4-3	96 h	IC50	> 10000 nM
